# Measured values of several laboratories.
# Protocols differ between the studies behind these lines. ± marks the error that the study gave.
# CA1: Carbonic anhydrase 1 (CA1, Homo sapiens, UniProt P00915)
# Sequence of UniProt P00915 (whole entry, looked up): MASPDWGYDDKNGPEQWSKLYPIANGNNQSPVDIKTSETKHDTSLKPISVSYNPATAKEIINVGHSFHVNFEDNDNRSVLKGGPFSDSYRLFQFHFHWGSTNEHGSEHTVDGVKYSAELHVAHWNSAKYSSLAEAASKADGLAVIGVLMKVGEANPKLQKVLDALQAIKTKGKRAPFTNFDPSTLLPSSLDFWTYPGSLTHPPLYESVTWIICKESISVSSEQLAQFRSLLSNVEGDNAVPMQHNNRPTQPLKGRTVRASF
# Oprd1: Delta-type opioid receptor (Oprd1, Rattus norvegicus, UniProt P33533)
# Sequence of UniProt P33533 (whole entry, looked up): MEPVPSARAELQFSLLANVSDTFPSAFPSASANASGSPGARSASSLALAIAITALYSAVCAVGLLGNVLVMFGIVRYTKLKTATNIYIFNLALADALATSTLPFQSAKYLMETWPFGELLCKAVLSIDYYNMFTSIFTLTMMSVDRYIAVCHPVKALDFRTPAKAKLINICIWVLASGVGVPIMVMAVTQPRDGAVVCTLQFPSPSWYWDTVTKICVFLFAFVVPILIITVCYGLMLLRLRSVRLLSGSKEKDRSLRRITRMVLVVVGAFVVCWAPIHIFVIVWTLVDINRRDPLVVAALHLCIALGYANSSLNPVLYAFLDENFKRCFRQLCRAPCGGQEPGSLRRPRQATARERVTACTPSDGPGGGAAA
# WDR5: WD repeat-containing protein 5 (WDR5, Homo sapiens, UniProt P61964)
# OPRK1: Kappa-type opioid receptor (OPRK1, Cavia porcellus, UniProt P41144)
# Sequence of UniProt P41144 (whole entry, looked up): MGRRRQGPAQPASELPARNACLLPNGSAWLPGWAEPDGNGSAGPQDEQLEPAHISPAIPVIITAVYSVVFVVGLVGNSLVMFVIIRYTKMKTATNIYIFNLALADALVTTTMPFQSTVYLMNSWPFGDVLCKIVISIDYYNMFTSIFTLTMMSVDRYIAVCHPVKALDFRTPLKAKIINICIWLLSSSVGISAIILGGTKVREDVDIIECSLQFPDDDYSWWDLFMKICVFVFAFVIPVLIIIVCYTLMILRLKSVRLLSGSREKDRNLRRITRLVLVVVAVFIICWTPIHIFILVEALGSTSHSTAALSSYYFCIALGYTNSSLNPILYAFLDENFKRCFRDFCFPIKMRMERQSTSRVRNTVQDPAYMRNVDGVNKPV
# OPRM1: Mu-type opioid receptor (OPRM1, Cavia porcellus, UniProt P97266)
# Sequence of UniProt P97266 (whole entry, looked up): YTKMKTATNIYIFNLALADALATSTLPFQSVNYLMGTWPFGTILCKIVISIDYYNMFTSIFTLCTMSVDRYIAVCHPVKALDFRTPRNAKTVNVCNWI
# Sequence of UniProt P14416 (whole entry, looked up): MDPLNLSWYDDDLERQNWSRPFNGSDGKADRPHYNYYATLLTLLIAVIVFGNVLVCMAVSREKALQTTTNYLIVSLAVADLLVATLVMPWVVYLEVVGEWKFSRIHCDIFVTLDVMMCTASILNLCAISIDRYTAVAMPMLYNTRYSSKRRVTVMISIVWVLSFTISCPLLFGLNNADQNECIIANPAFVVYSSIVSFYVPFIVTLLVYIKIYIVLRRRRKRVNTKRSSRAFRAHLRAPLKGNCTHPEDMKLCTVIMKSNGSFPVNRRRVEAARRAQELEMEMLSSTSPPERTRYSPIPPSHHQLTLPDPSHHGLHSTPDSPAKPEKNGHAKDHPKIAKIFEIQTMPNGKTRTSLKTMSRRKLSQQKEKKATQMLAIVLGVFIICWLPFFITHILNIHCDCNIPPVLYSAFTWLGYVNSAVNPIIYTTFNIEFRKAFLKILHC
# Sequence of UniProt P41143 (whole entry, unmodified, looked up): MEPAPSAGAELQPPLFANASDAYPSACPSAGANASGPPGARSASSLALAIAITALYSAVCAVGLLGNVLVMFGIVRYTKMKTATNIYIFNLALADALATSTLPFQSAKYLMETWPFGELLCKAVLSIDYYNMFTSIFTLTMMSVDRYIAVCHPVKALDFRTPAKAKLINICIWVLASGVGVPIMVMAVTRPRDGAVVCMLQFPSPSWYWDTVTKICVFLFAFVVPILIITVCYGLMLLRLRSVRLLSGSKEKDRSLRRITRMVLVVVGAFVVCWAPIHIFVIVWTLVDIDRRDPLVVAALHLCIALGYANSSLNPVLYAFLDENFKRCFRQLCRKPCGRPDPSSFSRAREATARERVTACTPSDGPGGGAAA
# Sequence of UniProt P35348 (whole entry, looked up): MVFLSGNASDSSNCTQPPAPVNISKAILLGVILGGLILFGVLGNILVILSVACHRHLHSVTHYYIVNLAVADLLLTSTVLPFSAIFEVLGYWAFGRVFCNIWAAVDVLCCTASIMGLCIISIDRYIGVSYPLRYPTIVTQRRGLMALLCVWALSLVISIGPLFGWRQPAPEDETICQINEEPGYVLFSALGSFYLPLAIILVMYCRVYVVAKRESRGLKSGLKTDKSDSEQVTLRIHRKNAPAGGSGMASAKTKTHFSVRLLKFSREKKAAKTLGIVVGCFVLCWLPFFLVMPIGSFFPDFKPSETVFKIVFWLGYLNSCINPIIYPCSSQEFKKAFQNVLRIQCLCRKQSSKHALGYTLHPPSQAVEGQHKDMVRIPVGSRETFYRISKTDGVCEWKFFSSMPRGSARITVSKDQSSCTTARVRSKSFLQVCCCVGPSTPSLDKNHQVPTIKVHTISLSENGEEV
# Sequence of UniProt P50406 (whole entry, looked up): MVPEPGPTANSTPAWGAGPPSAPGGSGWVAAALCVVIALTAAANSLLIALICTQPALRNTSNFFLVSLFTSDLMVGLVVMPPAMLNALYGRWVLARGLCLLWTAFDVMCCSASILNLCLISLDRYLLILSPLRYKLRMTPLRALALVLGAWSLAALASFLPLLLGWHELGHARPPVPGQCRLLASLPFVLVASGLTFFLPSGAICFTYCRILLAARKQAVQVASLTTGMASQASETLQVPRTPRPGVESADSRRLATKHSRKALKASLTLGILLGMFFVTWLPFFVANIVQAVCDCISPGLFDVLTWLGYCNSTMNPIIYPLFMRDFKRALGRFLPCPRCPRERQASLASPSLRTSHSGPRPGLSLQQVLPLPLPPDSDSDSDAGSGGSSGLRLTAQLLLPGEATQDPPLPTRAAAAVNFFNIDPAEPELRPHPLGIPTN
# Sequence of UniProt Q9Y251 (whole entry, looked up): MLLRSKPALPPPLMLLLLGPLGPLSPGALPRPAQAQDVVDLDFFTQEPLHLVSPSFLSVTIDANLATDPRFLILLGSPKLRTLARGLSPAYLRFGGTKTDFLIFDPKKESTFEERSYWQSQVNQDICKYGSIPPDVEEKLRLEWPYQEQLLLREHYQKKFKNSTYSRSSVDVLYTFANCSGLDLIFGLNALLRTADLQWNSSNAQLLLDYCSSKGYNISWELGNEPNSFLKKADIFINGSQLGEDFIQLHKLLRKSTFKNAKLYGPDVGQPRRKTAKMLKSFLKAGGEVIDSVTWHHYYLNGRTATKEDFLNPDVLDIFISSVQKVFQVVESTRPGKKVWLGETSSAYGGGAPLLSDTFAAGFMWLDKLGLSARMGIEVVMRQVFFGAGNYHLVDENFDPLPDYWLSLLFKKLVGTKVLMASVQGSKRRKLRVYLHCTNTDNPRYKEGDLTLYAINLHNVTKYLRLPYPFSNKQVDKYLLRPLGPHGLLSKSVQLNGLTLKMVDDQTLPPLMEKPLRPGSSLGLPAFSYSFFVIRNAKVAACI
# Sequence of UniProt P08908 (whole entry, looked up): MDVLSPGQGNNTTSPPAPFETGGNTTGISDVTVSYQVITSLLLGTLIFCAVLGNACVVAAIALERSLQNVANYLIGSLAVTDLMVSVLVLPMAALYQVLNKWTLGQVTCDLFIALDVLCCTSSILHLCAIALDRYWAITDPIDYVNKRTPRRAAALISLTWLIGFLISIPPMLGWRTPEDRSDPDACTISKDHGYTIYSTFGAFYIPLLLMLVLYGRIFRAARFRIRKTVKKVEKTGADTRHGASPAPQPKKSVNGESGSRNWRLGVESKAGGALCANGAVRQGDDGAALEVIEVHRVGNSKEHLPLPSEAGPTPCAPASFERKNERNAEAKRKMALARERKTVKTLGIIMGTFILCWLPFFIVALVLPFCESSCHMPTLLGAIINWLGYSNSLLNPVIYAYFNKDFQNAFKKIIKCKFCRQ
# Sequence of UniProt P08172 (whole entry, looked up): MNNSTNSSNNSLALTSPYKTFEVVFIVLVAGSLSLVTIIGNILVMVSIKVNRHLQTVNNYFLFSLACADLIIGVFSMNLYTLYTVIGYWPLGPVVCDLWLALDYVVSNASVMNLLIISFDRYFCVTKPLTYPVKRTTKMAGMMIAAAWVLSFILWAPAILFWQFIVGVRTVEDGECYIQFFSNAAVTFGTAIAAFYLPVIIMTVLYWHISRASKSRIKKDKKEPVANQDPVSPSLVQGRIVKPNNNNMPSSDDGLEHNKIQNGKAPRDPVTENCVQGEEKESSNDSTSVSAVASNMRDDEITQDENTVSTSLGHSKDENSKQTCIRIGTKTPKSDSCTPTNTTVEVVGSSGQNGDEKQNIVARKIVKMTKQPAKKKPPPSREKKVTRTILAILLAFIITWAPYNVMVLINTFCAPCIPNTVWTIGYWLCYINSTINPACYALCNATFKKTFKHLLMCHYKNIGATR
# Sequence of UniProt Q00688 (whole entry, looked up): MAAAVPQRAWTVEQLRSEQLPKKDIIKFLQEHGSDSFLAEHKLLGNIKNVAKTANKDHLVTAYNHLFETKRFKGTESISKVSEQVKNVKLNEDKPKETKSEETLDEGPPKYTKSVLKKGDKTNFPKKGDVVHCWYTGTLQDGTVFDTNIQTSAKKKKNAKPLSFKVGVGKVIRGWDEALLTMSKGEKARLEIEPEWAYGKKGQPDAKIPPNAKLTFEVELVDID
# Sequence of UniProt P35462 (whole entry, looked up): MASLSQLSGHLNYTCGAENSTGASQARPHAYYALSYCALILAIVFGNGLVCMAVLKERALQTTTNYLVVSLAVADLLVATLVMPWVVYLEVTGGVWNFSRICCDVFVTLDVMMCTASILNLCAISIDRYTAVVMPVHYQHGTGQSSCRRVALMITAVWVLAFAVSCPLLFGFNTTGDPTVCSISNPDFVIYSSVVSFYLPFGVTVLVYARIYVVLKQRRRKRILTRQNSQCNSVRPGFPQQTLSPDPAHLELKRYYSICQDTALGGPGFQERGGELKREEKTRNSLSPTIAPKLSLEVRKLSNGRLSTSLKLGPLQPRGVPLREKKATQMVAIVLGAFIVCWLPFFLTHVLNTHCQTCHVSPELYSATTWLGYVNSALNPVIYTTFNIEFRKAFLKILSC
SMILES,tested on,assay,system,conditions,endpoint,value
COc1ccc(CC[C@H]2OC(=O)[C@@H]3CCCCN3C(=O)C(=O)C(C)(C)COC(=O)/C=C/CCN(C)C(=O)[C@H](CC(C)C)N(C)C(=O)[C@@H]3CCCN3C(=O)[C@H](Cc3ccccc3)N(C)C(=O)[C@H](c3ccccc3)NC(=O)CCC(=O)Nc3cccc2c3)cc1OC,"Peptidyl-prolyl cis-trans isomerase FKBP3 (Homo sapiens, UniProt Q00688)","enzyme activity, inhibitor",,,Ki,> 5000 nM
O=S(=O)(N/N=C/c1ccc(OS(=O)(=O)c2ccccc2)cc1)c1ccc(Cl)cc1,CA1,"enzyme activity, inhibitor, absorbance",,,Ki,478 nM
Cc1cc(O)cc(C)c1C[C@H](N)C(=O)N[C@H](CCCNC(=N)N)C(=O)N[C@@H](Cc1ccccc1)C(=O)N[C@@H](CCCCN)C(=O)NCCCCCCNC(=O)[C@H](Cc1ccccc1)NC(=O)[C@H](CC1CCCCC1)NC[C@@H]1Cc2ccccc2CN1C(=O)[C@@H](N)Cc1ccc(O)cc1,Oprd1,"ligand displacement, radioligand",,cell membranes,Ki,3.5 nM
NC1CCSC1=O (stereo not drawn),CA1,"enzyme activity, inhibitor, stopped-flow",,,Ki,> 100000 nM
CC[C@@H]1NC(=O)[C@H](CCCNC(=N)N)NC(=O)[C@H](NC(=O)C(C)C)CNC(=O)c2cc(F)c(c(F)c2)N=Nc2c(F)cc(cc2F)C(=O)NCCNC(=O)[C@@H](c2ccccc2)NC1=O,WDR5,"binding, inhibitor, competitive fluorescence polarization",,"trans isomer, 405 nm photostationary state",Ki,43 nM
COc1ccc(S(=O)(=O)Oc2ccc(/C=N/NS(=O)(=O)c3ccc(Cl)cc3)cc2)cc1,CA1,"enzyme activity, inhibitor, absorbance",,,Ki,84.2 nM
CN1CCN(c2cccc3c2ccn3C(=O)c2ccccc2)CC1,"D(2) dopamine receptor, long isoform (DRD2, Homo sapiens, UniProt P14416)","binding, radioligand displacement",HEK293 membranes,"1 h, 37 °C, added: [3H]-raclopride",Ki,88 ± 11 nM
N=C(N)NCCC[C@H]1NC(=O)[C@@H](Cc2ccc(O)cc2)NC(=O)[C@H](CCCCN)NC(=O)[C@H](Cc2ccccc2)NC1=O,OPRK1,"ligand displacement, radioligand",,cell membranes,Ki,> 10000 nM
Cc1cc(O)cc(C)c1C[C@H](N)C(=O)N[C@H](CCCNC(=N)N)C(=O)N[C@@H](Cc1ccccc1)C(=O)N(C)CC(=O)N(C)Cc1cc(C(F)(F)F)cc(C(F)(F)F)c1,"OPRD1 (Homo sapiens, UniProt P41143, Y308F)",,,,Ki,13 nM
C[C@@H](Cc1ccsc1)NC(=O)NC[C@H](Cc1ccc(O)cc1)N(C)C,"CHRM2 (Homo sapiens, UniProt P08172)",cell-free assay,,,Ki,4400 nM
COc1ccccc1N1CCN(CCCCN2CCCc3ccccc3C2=O)CC1,"DRD2 (Homo sapiens, UniProt P14416)","ligand displacement, radioligand",,,Ki,9.3 nM
COc1cc2c(cc1O)C(CCc1ccc(Cl)cc1)N(C)CC2 (stereo not drawn),"ADRA1A (Homo sapiens, UniProt P35348)","cell-free assay, radioligand",,,Ki,2400 nM
Cc1ccc(S(=O)(=O)Oc2ccc(/C=N/NS(=O)(=O)c3ccc(Cl)cc3)cc2)cc1,CA1,"enzyme activity, inhibitor, absorbance",,,Ki,11.6 nM
COC1c2cc(C(C)C)c(O)c(O)c2C23CCCC(C)(C)C2C1OC3=O (stereo not drawn),CA1,"enzyme activity, inhibitor",,,Ki,0.85 nM
Cc1cc(O)cc(C)c1C[C@H](N)C(=O)N[C@H](CCCNC(=N)N)C(=O)N[C@@H](Cc1ccccc1)C(=O)N[C@@H](CCCCN)C(=O)N[C@@H]1CCCC[C@H]1NC(=O)[C@H](Cc1ccccc1)NC(=O)[C@H](CC1CCCCC1)NC[C@@H]1Cc2ccccc2CN1C(=O)[C@@H](N)Cc1ccc(O)cc1,Oprd1,"ligand displacement, radioligand",,cell membranes,Ki,95.2 nM
COc1ccc(S(=O)(=O)Oc2ccc(/C=N/NS(=O)(=O)c3cc(Cl)ccc3Cl)cc2)cc1,CA1,"enzyme activity, inhibitor, absorbance",,,Ki,11.5 nM
CCCCCCCCOC1OC(C)C(OC2OC(C)C(OC3OC(C)C(OC4OC(C)C(OS(=O)(=O)O)C(OS(=O)(=O)O)C4OS(=O)(=O)O)C(OS(=O)(=O)O)C3OS(=O)(=O)O)C(OS(=O)(=O)O)C2OS(=O)(=O)O)C(OS(=O)(=O)O)C1OS(=O)(=O)O (stereo not drawn),"Heparanase (HPSE, Homo sapiens, UniProt Q9Y251)","enzyme activity, inhibitor",,,Ki,6.9 nM
NC(=O)[C@@H]1CC/C=C/C[C@@H](NC(=O)[C@@H](N)Cc2ccc(O)cc2)C(=O)N[C@@H](Cc2ccccc2)C(=O)N[C@@H](Cc2ccccc2)C(=O)N1,OPRK1,"ligand displacement, radioligand",,cell membranes,Ki,15.2 nM
CC[C@@H]1NC(=O)[C@H](CCCNC(=N)N)NC(=O)[C@H](NC(=O)C(C)C)CCNC(=O)c2cc(F)c(c(F)c2)N=Nc2c(F)cc(cc2F)C(=O)NCCNC(=O)[C@@H](Cc2ccccc2)NC1=O,WDR5,fluorescence polarization competition,,"cis PSS 520 nm, before irradiation",Ki,5.78 ± 1.59 nM
Cc1cc(O)cc(C)c1C[C@H](N)C(=O)N[C@H](CCCNC(=N)N)C(=O)N[C@@H](Cc1ccccc1)C(=O)N[C@@H](CCCCNC(=O)CN1CCN(CC(=O)O)CCN(CC(=O)O)CCN(CC(=O)O)CC1)C(N)=O,OPRM1,"ligand displacement, radioligand",,cell membranes,Ki,0.068 nM
Cc1cc(O)cc(C)c1CCC(=O)N[C@@H]1C/C=C\CC[C@@H](C(N)=O)NC(=O)[C@H](Cc2ccccc2)NC(=O)[C@H](Cc2ccccc2)NC1=O,OPRK1,"ligand displacement, radioligand",,cell membranes,Ki,266 nM
O=C1NC2(CC2)COc2ncc(F)cc2[C@H]2COCCN2c2ccn3ncc1c3n2,,,"Sprague-Dawley rat, male, thymus","oral, 2.5 mg/kg/day, 4 weeks dosing, end of recovery",organ-to-body weight ratio,0.088 ± 0.012%
NC(=O)[C@@H]1CCCCC[C@@H](NC(=O)[C@@H](N)Cc2ccc(O)cc2)C(=O)N[C@@H](Cc2ccccc2)C(=O)N[C@@H](Cc2ccccc2)C(=O)N1,OPRK1,"ligand displacement, radioligand",,cell membranes,Ki,11.3 nM
O=C1c2ccccc2CCCN1CCCCN1CCN(c2cccc(Cl)c2Cl)CC1,"HTR6 (Homo sapiens, UniProt P50406)","ligand displacement, radioligand",,,Ki,669 nM
CC[C@@H]1NC(=O)[C@H](CCCNC(=N)N)NC(=O)[C@H](NC(=O)C(C)C)CCNC(=O)c2cc(F)c(c(F)c2)N=Nc2c(F)cc(cc2F)C(=O)NCCNC(=O)[C@@H](c2ccccc2)NC1=O,WDR5,"binding, inhibitor, competitive fluorescence polarization",,"cis isomer, 520 nm photostationary state",Ki,8 nM
O=C(Cc1ccc(Cl)c(Cl)c1)N1CCN[C@@H]2COC[C@H](N3CCCC3)[C@H]21,"OPRD1 (Homo sapiens, UniProt P41143)","ligand displacement, radioligand",,cell membranes,Ki,> 10000 nM
Cc1cc(O)cc(C)c1C[C@H](N)C(=O)N[C@H](CCCNC(=N)N)C(=O)N[C@@H](Cc1ccccc1)C(=O)N[C@@H](CCCCN)C(=O)NCCCCCC(=O)N[C@@H](CCCCNC(=O)CN1CCN(CC(=O)O)CCN(CC(=O)O)CCN(CC(=O)O)CC1)C(N)=O,OPRM1,"ligand displacement, radioligand",,cell membranes,Ki,0.25 nM
COc1ccc(-n2nc3c4cc(Cl)ccc4[nH]cc-3c2=O)cc1,"Gabrg2/Gabra6, α6+/γ2− interface (Rattus norvegicus, UniProt P18508+P30191)",,rat cerebellar membranes,"added: [3H]Ro15-4513, diazepam 50 mM",Ki,0.55 ± 0.04 nM
Cc1cc(O)cc(C)c1C[C@H](N)C(=O)N[C@H](CCCNC(=N)N)C(=O)N[C@@H](Cc1ccccc1)C(=O)N[C@@H](CCCCN)C(=O)NCCCCCCCCCCCCNC(=O)[C@H](Cc1ccccc1)NC(=O)[C@H](CC1CCCCC1)NC[C@@H]1Cc2ccccc2CN1C(=O)[C@@H](N)Cc1ccc(O)cc1,Oprd1,"ligand displacement, radioligand",,cell membranes,Ki,41.4 nM
Cc1cc(=O)oc2cc(OCCCCCC[Se]C#N)ccc12,CA1,"enzyme activity, inhibitor, stopped-flow",,,Ki,> 100000 nM
CN(C)[C@H](CNC(=O)/C=C/c1cccc2ccccc12)Cc1ccc(O)cc1,"DRD3 (Homo sapiens, UniProt P35462)",cell-free assay,,,Ki,6000 nM
Cc1cc(O)cc(C)c1C[C@H](N)C(=O)N[C@@H]1C/C=C/CC[C@@H](C(N)=O)NC(=O)[C@H](Cc2ccccc2)NC(=O)[C@H](Cc2ccccc2)NC1=O,Oprd1,"ligand displacement, radioligand",,cell membranes,Ki,0.286 nM
CC[C@@H]1NC(=O)[C@H](CCCNC(=N)N)NC(=O)[C@H](NC(=O)C(C)C)CCCCNC(=O)c2cc(F)c(c(F)c2)N=Nc2c(F)cc(cc2F)C(=O)NCCNC(=O)[C@@H](Cc2ccccc2)NC1=O,WDR5,"binding, inhibitor, competitive fluorescence polarization",,"trans isomer, 405 nm photostationary state",Ki,831 nM
COc1c(C(C)C)cc2c(c1O)[C@@]1(C(=O)O)CCCC(C)(C)C1CC2 (stereo partly drawn),CA1,"enzyme activity, inhibitor",,,Ki,1.18 nM
CC[C@@H]1NC(=O)[C@H](CCCNC(=N)N)NC(=O)[C@@H](C)NC(=O)c2cc(F)c(c(F)c2)N=Nc2c(F)cc(cc2F)C(=O)NCCNC(=O)[C@@H](Cc2ccccc2)NC1=O,WDR5,"binding, inhibitor, competitive fluorescence polarization",,"cis isomer, 520 nm photostationary state",Ki,1310 nM
COc1ccc2c(c1)c(CCN(C)C)cn2Cc1ccccc1,"HTR1A (Homo sapiens, UniProt P08908)","ligand displacement, radioligand",,cell membranes,Ki,379 nM

# For quick reference, copied from above:
SMILES,tested on,assay,system,conditions,endpoint,value
Cc1cc(O)cc(C)c1C[C@H](N)C(=O)N[C@H](CCCNC(=N)N)C(=O)N[C@@H](Cc1ccccc1)C(=O)N[C@@H](CCCCN)C(=O)NCCCCCCCCCCCCNC(=O)[C@H](Cc1ccccc1)NC(=O)[C@H](CC1CCCCC1)NC[C@@H]1Cc2ccccc2CN1C(=O)[C@@H](N)Cc1ccc(O)cc1,Oprd1,"ligand displacement, radioligand",,cell membranes,Ki,41.4 nM
COC1c2cc(C(C)C)c(O)c(O)c2C23CCCC(C)(C)C2C1OC3=O (stereo not drawn),CA1,"enzyme activity, inhibitor",,,Ki,0.85 nM
Cc1ccc(S(=O)(=O)Oc2ccc(/C=N/NS(=O)(=O)c3ccc(Cl)cc3)cc2)cc1,CA1,"enzyme activity, inhibitor, absorbance",,,Ki,11.6 nM
NC(=O)[C@@H]1CC/C=C/C[C@@H](NC(=O)[C@@H](N)Cc2ccc(O)cc2)C(=O)N[C@@H](Cc2ccccc2)C(=O)N[C@@H](Cc2ccccc2)C(=O)N1,OPRK1,"ligand displacement, radioligand",,cell membranes,Ki,15.2 nM
COc1ccc(S(=O)(=O)Oc2ccc(/C=N/NS(=O)(=O)c3cc(Cl)ccc3Cl)cc2)cc1,CA1,"enzyme activity, inhibitor, absorbance",,,Ki,11.5 nM
